# Results collected from several papers.
# Every numbered part comes from another study and shows a few of its results, in no order. “And” joins repeats or separate records; there may be more than shown.
# UniProt O14578, sequence (whole entry, looked up): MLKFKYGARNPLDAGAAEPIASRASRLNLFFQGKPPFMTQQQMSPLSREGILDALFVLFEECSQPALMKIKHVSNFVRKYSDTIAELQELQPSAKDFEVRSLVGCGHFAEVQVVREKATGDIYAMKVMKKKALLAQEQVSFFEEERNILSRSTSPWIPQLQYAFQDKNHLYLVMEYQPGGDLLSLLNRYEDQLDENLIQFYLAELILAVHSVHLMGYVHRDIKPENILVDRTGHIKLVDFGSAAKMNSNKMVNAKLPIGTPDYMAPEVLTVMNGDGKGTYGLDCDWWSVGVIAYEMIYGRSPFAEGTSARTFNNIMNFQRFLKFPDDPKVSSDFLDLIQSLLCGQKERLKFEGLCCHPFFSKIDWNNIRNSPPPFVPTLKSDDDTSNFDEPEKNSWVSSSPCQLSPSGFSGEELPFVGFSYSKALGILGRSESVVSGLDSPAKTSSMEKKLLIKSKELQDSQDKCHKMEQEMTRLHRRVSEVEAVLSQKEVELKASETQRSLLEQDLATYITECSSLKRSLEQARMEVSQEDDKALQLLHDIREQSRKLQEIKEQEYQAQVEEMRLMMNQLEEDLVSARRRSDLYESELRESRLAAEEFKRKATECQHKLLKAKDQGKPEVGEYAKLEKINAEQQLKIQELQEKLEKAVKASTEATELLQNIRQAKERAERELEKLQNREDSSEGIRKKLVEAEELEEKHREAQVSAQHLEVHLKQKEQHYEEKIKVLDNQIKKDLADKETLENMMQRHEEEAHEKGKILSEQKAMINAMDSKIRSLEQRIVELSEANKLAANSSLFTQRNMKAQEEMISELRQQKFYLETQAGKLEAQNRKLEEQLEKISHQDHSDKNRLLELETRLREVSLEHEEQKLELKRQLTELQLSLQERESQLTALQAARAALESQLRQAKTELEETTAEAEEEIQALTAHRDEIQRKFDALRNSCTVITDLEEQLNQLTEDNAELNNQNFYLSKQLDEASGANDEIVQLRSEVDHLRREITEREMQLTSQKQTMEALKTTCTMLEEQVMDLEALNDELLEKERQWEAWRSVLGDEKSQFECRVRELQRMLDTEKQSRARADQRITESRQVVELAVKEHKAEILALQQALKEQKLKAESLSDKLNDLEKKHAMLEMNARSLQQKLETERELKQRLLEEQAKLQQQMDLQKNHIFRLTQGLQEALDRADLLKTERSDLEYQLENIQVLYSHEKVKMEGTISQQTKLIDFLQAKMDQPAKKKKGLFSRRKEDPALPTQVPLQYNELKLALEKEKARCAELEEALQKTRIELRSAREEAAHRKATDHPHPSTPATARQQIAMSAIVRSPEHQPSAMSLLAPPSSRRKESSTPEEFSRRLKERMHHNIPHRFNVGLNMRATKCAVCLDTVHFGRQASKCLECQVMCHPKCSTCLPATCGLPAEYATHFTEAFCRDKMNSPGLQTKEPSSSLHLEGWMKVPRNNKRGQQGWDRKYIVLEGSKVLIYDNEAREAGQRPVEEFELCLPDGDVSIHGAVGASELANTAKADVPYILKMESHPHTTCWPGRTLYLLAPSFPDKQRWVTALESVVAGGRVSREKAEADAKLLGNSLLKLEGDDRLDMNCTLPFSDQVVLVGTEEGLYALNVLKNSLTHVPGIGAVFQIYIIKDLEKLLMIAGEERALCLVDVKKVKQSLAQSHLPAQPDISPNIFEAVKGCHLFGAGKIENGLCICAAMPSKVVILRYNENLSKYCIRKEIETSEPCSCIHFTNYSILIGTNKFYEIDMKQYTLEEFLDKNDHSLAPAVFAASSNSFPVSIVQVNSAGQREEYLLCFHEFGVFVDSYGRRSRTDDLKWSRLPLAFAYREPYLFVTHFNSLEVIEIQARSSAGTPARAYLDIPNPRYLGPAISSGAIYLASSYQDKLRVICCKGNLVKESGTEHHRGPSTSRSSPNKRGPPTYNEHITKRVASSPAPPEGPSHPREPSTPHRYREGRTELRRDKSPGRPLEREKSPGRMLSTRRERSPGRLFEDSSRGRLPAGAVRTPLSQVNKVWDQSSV
# UniProt Q8IYT8, sequence (whole entry, looked up): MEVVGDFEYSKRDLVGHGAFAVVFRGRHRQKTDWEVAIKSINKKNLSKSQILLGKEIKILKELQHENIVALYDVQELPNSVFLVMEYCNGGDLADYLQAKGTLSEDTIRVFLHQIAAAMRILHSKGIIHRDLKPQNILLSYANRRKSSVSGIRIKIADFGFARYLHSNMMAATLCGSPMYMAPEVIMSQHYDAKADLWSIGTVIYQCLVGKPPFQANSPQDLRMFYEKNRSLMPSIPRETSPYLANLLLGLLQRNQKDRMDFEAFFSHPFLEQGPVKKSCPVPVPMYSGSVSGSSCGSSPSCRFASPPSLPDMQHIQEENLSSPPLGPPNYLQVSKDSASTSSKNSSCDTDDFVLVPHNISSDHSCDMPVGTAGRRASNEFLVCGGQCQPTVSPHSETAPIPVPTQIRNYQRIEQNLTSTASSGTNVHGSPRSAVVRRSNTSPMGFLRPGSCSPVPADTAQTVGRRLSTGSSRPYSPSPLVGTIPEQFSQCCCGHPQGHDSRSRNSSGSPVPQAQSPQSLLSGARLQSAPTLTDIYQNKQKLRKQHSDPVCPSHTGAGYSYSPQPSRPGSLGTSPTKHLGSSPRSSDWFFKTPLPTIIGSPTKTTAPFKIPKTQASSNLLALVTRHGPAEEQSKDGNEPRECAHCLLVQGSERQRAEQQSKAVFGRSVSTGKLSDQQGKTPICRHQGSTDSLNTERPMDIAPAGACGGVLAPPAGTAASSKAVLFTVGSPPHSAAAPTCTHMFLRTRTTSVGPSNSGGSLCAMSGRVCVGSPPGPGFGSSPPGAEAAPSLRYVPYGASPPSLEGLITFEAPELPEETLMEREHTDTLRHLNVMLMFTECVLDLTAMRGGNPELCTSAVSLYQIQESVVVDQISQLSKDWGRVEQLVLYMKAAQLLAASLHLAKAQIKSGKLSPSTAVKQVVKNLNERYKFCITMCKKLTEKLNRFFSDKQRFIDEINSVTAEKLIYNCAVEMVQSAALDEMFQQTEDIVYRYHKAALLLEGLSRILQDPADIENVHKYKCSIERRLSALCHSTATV
# UniProt Q13177, sequence (whole entry, looked up): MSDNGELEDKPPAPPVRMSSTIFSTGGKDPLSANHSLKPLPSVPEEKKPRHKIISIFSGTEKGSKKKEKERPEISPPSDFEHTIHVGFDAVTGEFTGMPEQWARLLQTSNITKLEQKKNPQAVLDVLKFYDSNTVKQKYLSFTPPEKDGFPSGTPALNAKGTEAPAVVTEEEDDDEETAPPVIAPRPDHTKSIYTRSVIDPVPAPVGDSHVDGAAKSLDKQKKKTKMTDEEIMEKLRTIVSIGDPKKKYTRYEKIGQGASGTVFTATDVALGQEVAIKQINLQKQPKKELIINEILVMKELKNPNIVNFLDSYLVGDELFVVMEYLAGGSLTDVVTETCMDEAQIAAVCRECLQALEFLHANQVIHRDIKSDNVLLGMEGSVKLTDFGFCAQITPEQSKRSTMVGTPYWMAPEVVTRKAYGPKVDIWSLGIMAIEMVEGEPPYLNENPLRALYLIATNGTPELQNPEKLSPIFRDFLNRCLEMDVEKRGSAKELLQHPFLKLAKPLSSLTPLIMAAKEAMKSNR
# UniProt Q13188, sequence (whole entry, looked up): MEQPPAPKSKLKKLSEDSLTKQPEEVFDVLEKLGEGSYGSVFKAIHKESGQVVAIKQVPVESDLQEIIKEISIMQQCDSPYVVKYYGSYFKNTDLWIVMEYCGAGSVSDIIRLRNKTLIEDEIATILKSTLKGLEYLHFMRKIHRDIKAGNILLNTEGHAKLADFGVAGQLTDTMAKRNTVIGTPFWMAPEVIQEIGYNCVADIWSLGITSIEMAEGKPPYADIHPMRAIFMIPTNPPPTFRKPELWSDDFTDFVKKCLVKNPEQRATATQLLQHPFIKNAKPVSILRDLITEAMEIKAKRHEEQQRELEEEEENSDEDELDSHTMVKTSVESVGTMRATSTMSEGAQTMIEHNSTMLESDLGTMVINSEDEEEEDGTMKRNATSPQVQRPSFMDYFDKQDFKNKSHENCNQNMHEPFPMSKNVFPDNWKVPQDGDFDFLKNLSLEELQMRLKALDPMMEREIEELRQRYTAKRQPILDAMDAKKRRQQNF
# UniProt O00329, sequence (whole entry, looked up): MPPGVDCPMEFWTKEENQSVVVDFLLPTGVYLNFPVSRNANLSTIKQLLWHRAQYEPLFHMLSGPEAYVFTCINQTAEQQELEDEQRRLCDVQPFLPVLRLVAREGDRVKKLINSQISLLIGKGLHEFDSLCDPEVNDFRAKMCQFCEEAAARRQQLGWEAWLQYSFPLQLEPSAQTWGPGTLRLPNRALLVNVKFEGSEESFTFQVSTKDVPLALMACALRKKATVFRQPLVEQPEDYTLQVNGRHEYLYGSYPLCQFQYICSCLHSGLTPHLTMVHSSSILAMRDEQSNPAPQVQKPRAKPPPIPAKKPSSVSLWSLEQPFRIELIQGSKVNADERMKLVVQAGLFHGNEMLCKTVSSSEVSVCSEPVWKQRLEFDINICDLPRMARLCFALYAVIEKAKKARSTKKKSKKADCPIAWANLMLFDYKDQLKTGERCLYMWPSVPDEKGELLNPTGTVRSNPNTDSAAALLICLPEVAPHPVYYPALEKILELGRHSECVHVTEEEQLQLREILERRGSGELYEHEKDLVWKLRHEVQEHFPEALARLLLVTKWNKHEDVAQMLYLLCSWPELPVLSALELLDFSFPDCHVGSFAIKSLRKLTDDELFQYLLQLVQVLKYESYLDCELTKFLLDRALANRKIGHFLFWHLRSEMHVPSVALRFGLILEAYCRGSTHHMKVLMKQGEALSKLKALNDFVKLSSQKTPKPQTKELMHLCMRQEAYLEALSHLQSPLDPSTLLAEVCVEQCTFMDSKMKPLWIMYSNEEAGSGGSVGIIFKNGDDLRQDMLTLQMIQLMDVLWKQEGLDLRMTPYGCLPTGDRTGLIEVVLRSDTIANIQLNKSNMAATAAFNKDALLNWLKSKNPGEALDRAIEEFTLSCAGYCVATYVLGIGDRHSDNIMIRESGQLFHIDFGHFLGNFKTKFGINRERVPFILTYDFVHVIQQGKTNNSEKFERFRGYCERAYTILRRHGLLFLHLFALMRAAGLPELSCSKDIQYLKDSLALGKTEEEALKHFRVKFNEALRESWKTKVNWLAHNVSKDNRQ

# Sample 1
# Structure (SMILES): COc1ccc(-c2c(Nc3ccccn3)[nH]c3c(C4=CCCCC4)c(-c4ccccc4)nn3c2=O)cc1
# Species: human
# Medium: plasma
# Route: oral
assay,setting,terminal half-life
LC-MS/MS,50 mg once daily,43.2 h
,200 mg twice daily,157 h and 228 h and 91.3 h
LC-MS/MS,400 mg once daily,22.7 h and 22.6 h and 18.1 h and 9.28 h
LC-MS/MS non-compartmental,"200 mg, day -3 of cycle 0, single dose, median",17.1 h

# Sample 2
# Structure (SMILES): CN(C)c1ncnc(-c2ccc3nc(Nc4cc(CN5CCN(C(=O)CC(F)(F)F)CC5)ccn4)[nH]c3c2)c1Cl
# Observed: cell-free assay
# Method: competition with immobilised ligand
# Tested at: 1 µM
target,remaining binding
"PIK3CD (Homo sapiens, UniProt O00329)",67%
"LATS2 (Homo sapiens, UniProt Q9NRM7)",53%
"TXK (Homo sapiens, UniProt P42681)",95%
"BRSK1 (Homo sapiens, UniProt Q8TDC3)",100%
"PAK2 (Homo sapiens, UniProt Q13177)",100%
"STK3 (Homo sapiens, UniProt Q13188)",100%
"HIPK2 (Homo sapiens, UniProt Q9H2X6)",86%
"CIT (Homo sapiens, UniProt O14578)",100%

# Sample 3
# Species: mouse
# Medium: microsomes or S9
# Tested at: 2 µM
# Time: 0.5 h
SMILES,remaining compound [%]
N=c1sc2cc(OC(F)(F)F)ccc2n1CCO,66.5
Cc1nc(C(=O)NC(C)C(C)(C)C)c2n1CCCC2 (stereo not drawn),23
COn1c(-c2ccc(C(C)(C)C)cc2)cc2cc3cccccc-3c2c1=O,37.4
COCc1nn2c(nnc3c(=O)n(NC(C)=O)ccc32)c1-c1ccc(F)cc1,94.3
COc1c(F)ccc(-c2cn([C@@H](CC(C)C)C(N)=O)nn2)c1F,5.84
Fc1cccc(F)c1COCC1CON=C(c2cccs2)O1 (stereo not drawn),57.1
CCn1cc(CN(C/C=C/c2ccco2)CC(C)C)cn1,6.69
Nc1ccc(Oc2ccnc3ccsc23)c(F)c1,35.3

# Other studies, line by line
SMILES,target,assay,setting,how to read,measurement,value
COc1ccc2c(c[n+](C)c3c4cc5c(cc4ccc23)OCO5)c1OC,"Serine/threonine-protein kinase ULK2 (ULK2, Homo sapiens, UniProt Q8IYT8)","enzyme activity, inhibitor",0.5 µM,relative to: control,remaining activity,92%

# A few entries again (sample 3):
SMILES,remaining compound [%]
Nc1ccc(Oc2ccnc3ccsc23)c(F)c1,35.3
N=c1sc2cc(OC(F)(F)F)ccc2n1CCO,66.5
Fc1cccc(F)c1COCC1CON=C(c2cccs2)O1 (stereo not drawn),57.1
